Results gathered from unrelated publications.
Lines come from different studies, so protocols differ. Several values in a cell are separate wells, animals, samples, runs or records. In brackets after ≈: the same amount, converted by molar mass.

SMILES | organism | assay | test system | setting | scale | quantity | result
CC(C)n1ncc2c(C(=O)NCC(C)(C)N)cc(C3CC3)nc21 | Enterovirus D68 | viral replication | RD, US/MO/14-18947 | 1000 nM |  | plaque reduction | 98.7% and 99.1%
C=C(NC(=O)c1csc(-c2nc3c(cc2O)-c2nc(cs2)C(=O)NC(C(C)O)C(=O)NC(=C(C)OC)c2nc(cs2)C(=O)NC2c4nc(cs4)C(=O)NC(COC(=O)c4c5c6c(cccc6n4O)COC(=O)C(OC4CC(C)(O)C(N(C)C)C(C)O4)C2OC5)c2nc-3cs2)n1)C(N)=O (stereo not shown) | Streptococcus pneumoniae |  | penicillin-resistant, 10 isolates | serum 75% |  | MIC50 | 0.0156 µg/mL (≈ 0.0109 µM)
C#CCO/N=C(\C(=O)N[C@@H]1C(=O)N(OS(=O)(=O)O)C1(C)C)c1csc(N)n1 | Shigella flexneri | agar dilution | ATCC 12022, susceptible |  |  | MIC | 0.5 µg/mL (≈ 1.2 µM)
FC(F)(F)c1cccc(CNc2nc(NC3CCN(Cc4ccccc4)CC3)c3nc[nH]c3n2)c1 | Cryptococcus neoformans | RNA-seq, measured: CNAG_04335 | wild type | 48 µg/mL, 3 h | relative to: untreated wild type | log2 fold change | -0.325
O=C(NN1C(=O)c2ccccc2NC1c1ccc([N+](=O)[O-])o1)c1ccc([N+](=O)[O-])cc1 (stereo not shown) | Mus musculus | gene silencing, high-content imaging | LDR reporter GFP cells | 30 h, confirmation, mean of two runs |  | Emax | 27%
CC(C)(O/N=C(\C(=O)N[C@@H]1C(=O)N(OS(=O)(=O)O)C1(C)C)c1nsc(N)n1)C(=O)O | Shigella flexneri | agar dilution | ATCC 12022, susceptible |  |  | MIC | 32 µg/mL (≈ 68.6 µM)
CC1=C/C(=N\N=C(/S)Nc2cccnc2)CC(C)(C)C1 | Mus musculus | gene silencing, high-content imaging | LDR reporter GFP cells | 30 h, retest, mean of two runs |  | Emax | 63%
CC1C=CC=CC(C)C2C=CC3CC(C)(O)C(Cl)C(C)C3C2C(=O)C(Cl)(Cl)C(=O)C(C)C(=O)O1 (stereo not shown) | Staphylococcus aureus |  | MRSA clinical isolate | resistant: OXA,CLI,ERY,MXF |  | MIC | 0.025 µg/mL (≈ 0.047 µM)
CN1CCN(S(=O)(=O)c2ccc(-c3ccc4ncnc(Nc5ccc(F)cc5)c4c3)cc2)CC1 | Leishmania major | parasite growth, resazurin |  | promastigote |  | EC50 | 12 µM
Cc1c(CN(C)C(=O)/C=C/c2cnc3c(c2)CC(N)C(=O)N3)oc2ccccc12 (stereo not shown) | Escherichia coli | broth microdilution | AR-0137 |  |  | MIC | 8 µg/mL (≈ 20.5 µM)
CC(=O)O[C@@H]1[C@@H](OC(C)=O)[C@H](Sc2sc(C(=O)c3ccc(Br)cc3)c(N)c2-c2nc3ccccc3s2)OC[C@H]1OC(C)=O | human adenovirus type 7 | plaque reduction |  | non-toxic concentration |  | viral titre reduction | 30%
COCC/N=C(\S)N/N=C(\C)c1ccccc1O | Mus musculus | gene silencing, high-content imaging | LDR reporter GFP cells | 30 h, confirmation, mean of two runs |  | Emax | 98%
O=S(=O)(c1ccc(-c2ccc3ncnc(Nc4ccc(OCc5ccccc5F)c(Cl)c4)c3c2)cc1)N1CCOCC1 | Leishmania major | parasite growth, resazurin |  | promastigote |  | EC50 | 0.71 µM
CC1(C)[C@H](NC(=O)/C(=N\OCCN)c2csc(N)n2)C(=O)N1OS(=O)(=O)O | Proteus vulgaris | agar dilution | ATCC 29905, susceptible |  |  | MIC | 0.125 µg/mL (≈ 0.296 µM)
CC(C)n1ncc2c(C(=O)NC[C@@H](C)N)cc(C3CC3)nc21 | Enterovirus D68 | viral replication | RD, US/MO/14-18947 | 10 nM |  | plaque reduction | 0%
C=CCO/N=C(\C(=O)N[C@@H]1C(=O)N(OS(=O)(=O)O)C1(C)C)c1nsc(N)n1 | Shigella flexneri | agar dilution | ATCC 12022, susceptible |  |  | MIC | 1 µg/mL (≈ 2.38 µM)
Fc1cccc(COc2ccc(Nc3ncnc4ccc(-c5ccc(N6CCCCC6)cc5)cc34)cc2Cl)c1 | Leishmania major | parasite growth, resazurin |  | promastigote |  | EC50 | > 15 µM
CC1(C)[C@H](NC(=O)/C(=N\OC2(C(=O)O)CCCC2)c2csc(N)n2)C(=O)N1OS(=O)(=O)O | Proteus vulgaris | agar dilution | ATCC 29905, susceptible |  |  | MIC | ≤ 0.03 µg/mL
Fc1cccc(COc2ccc(Nc3ncnc4ccc(-c5ccc(CN6CCCCC6)cc5)cc34)cc2Cl)c1 | Leishmania major | parasite growth, resazurin |  | promastigote |  | EC50 | 8.4 µM

SMILES | organism | assay | test system | setting | scale | quantity | result
CNCc1ccc2c(c1)N(C(=O)OCc1c(F)c(F)c(F)c(F)c1F)[C@H](CNC(=N)N)[C@H]2NC(=O)C(=O)Nc1ccc(Cl)c(F)c1 | HIV-1 | viral infection | TZM-bl, CRF02_AG 235-47 Env pseudovirus |  |  | IC80 | 2.52 µM
[2H]C([2H])(N)C([2H])([2H])NC(=O)c1cc(C2CC2)nc2c1cnn2C(C)C | Enterovirus D68 | viral replication | RD, US/MO/14-18947 | 300 nM |  | plaque reduction | 74.9% and 58.1%
Cc1ccc(C(=O)c2sc(S)c(-c3nc4ccccc4s3)c2N)cc1 | human adenovirus type 7 | plaque reduction |  | non-toxic concentration |  | viral titre reduction | 10%
Cc1ccc(/C=N/N=C(\S)Nc2cccc(S(=O)(=O)N(C)C)c2)o1 | Mus musculus | gene silencing, high-content imaging | LDR reporter GFP cells | 30 h, retest, mean of two runs |  | Emax | 50%
COc1ccc(S(=O)(=O)N(C)c2cc(OC)c(OC)cc2NC(C)=O)cc1 | Leishmania infantum | intracellular amastigote growth | U-937 macrophages and HeLa |  | relative to: IC50 HeLa over IC50 amastigotes | selectivity index | 1.3
Fc1cccc(COc2ccc(Nc3ncnc4ccc(-c5ccccc5)cc34)cc2Cl)c1 | Leishmania major | parasite growth, resazurin |  | promastigote |  | EC50 | 4 µM
CCN(CC)CCCNC(=O)CSc1c2c(nc3cc(Cl)ccc13)CCCC2 | Mus musculus | gene silencing, high-content imaging | LDR reporter GFP cells | 30 h, retest run 2 |  | Emax | 86%
CC(C)(C)NCC(SS(=O)(=O)O)c1ccccc1 (stereo not shown) | Schistosoma mansoni |  | mice | 600 mg/kg single dose, 1056 h, dosed day 7, perfused 44 | relative to: vehicle | male worm burden reduction | 29%
Cc1cnc(CNC(=O)c2c(=O)c3ccc(N4CCCN(C)CC4)nc3n3c2sc2ccccc23)cn1 | Trypanosoma brucei | RNA-seq | Lister 427 bloodstream form | 2 x EC50, 4 h | relative to: untreated | unchanged genes | 16900 genes
CC(=O)OC[C@H]1O[C@@H](Sc2sc(C(=O)c3ccc(Br)cc3)c(N)c2-c2nc3ccccc3s2)[C@H](OC(C)=O)[C@@H](OC(C)=O)[C@H]1OC(C)=O | human adenovirus type 7 | plaque reduction |  | non-toxic concentration |  | viral titre reduction | 10%
CC(C)(C)OC(=O)N1CCN(S(=O)(=O)c2ccc(-c3ccc4ncnc(Nc5ccc(OCc6cccc(F)c6)c(Cl)c5)c4c3)cc2)CC1 | Leishmania major | parasite growth, resazurin |  | promastigote |  | EC50 | > 15 µM
C[C@@H]1NC2(C(=O)N(CC(=O)O)C1=O)C1CC3CC(C1)CC2C3 (stereo partly shown) | Trypanosoma brucei | parasite growth |  | pH 7.4, blood stage |  | IC90 | 255 µM
COc1ccc(NC(=O)CSc2nc3c(oc4ccccc43)c(=O)n2Cc2ccco2)cc1Cl | Mus musculus | gene silencing, high-content imaging | LDR reporter GFP cells | 30 h, retest run 2 |  | Emax | 73%
CCCCCCCCCC(=O)N[C@@H](Cc1c[nH]c2ccccc12)C(=O)N[C@H](CC(N)=O)C(=O)N[C@@H](CC(=O)O)C(=O)N[C@@H]1C(=O)NCC(=O)N[C@@H](CCCNC(=O)OC2/C=C/CCCCC2)C(=O)N[C@@H](CC(=O)O)C(=O)N[C@H](C)C(=O)N[C@@H](CC(=O)O)C(=O)NCC(=O)N[C@H](CO)C(=O)N[C@@H]([C@H](C)CC(=O)O)C(=O)N[C@@H](CC(=O)c2ccccc2N)C(=O)O[C@@H]1C (stereo partly shown) | Staphylococcus aureus | planktonic bacterial growth, isothermal microcalorimetry | MRSA | 1.5 µg/mL, 24 h, 37 °C, together with: TAG hydrogel |  | peak heat flow time | 0 h
O=S(=O)(c1ccc(-c2ccc3ncnc(Nc4ccc(OCc5cccc(F)c5)c(Cl)c4)c3c2)cc1)N1CCCCC1 | Leishmania major | parasite growth, resazurin |  | promastigote |  | EC50 | > 15 µM
CCc1nnc(NC(=O)c2cccc(C(=O)Nc3nnc(CC)s3)n2)s1 | Mus musculus | gene silencing, high-content imaging | LDR reporter GFP cells | retest run 2 |  | AC50 | 25.1 µM
COc1ccc(Nc2ncnc3ccc(-c4ccc(S(=O)(=O)N5CCOCC5)cc4)cc23)cc1Cl | Leishmania major | parasite growth, resazurin |  | promastigote |  | EC50 | 0.83 µM
O=C(N/N=C/c1ccccn1)c1cc(-c2ccc(Cl)cc2)nc2ccccc12 | Mus musculus | gene silencing, high-content imaging | LDR reporter GFP cells | 30 h, retest, mean of two runs |  | Emax | 90%

Repeated from above:
SMILES | organism | assay | test system | setting | scale | quantity | result
CC(C)n1ncc2c(C(=O)NCC(C)(C)N)cc(C3CC3)nc21 | Enterovirus D68 | viral replication | RD, US/MO/14-18947 | 1000 nM |  | plaque reduction | 98.7% and 99.1%
C=C(NC(=O)c1csc(-c2nc3c(cc2O)-c2nc(cs2)C(=O)NC(C(C)O)C(=O)NC(=C(C)OC)c2nc(cs2)C(=O)NC2c4nc(cs4)C(=O)NC(COC(=O)c4c5c6c(cccc6n4O)COC(=O)C(OC4CC(C)(O)C(N(C)C)C(C)O4)C2OC5)c2nc-3cs2)n1)C(N)=O (stereo not shown) | Streptococcus pneumoniae |  | penicillin-resistant, 10 isolates | serum 75% |  | MIC50 | 0.0156 µg/mL (≈ 0.0109 µM)
